Assay results from different studies.
Each line is one published result; not all experiments were run side by side. pIC50: −log10 of the molar value.
Target: Amine oxidase [flavin-containing] B (MAOB, Homo sapiens, UniProt P27338)
Chain of UniProt P27338 (whole entry, looked up): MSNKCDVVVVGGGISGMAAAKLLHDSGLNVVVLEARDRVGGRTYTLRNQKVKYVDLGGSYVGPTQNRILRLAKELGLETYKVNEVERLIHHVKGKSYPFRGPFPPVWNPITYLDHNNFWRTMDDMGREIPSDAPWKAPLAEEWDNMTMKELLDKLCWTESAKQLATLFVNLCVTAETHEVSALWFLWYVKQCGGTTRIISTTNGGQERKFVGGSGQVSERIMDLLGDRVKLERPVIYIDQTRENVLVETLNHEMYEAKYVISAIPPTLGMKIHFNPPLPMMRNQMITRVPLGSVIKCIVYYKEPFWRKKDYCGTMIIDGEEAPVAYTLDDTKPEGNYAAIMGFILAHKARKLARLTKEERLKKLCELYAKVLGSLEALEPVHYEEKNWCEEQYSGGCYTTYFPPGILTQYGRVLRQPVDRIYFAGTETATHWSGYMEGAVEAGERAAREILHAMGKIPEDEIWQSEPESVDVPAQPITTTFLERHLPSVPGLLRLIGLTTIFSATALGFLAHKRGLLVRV
Read-out: enzyme activity
Mode: inhibitor

Compound = O=C1c2cc(F)ccc2N(Cc2ccccc2)C12CCCC2; pIC50 = 5.03
Compound = O=c1ccoc2ccc(OCCN3CCCCCC3)cc12; test = fluorescence; pIC50 = 5.40
Compound = O=C1c2ccccc2N(Cc2ccc(F)cc2)C12CCCC2; pIC50 = 4.90
Compound = CC(=O)C1=C(C)NC(SCCCSc2nnc(Cc3ccccc3Nc3c(Cl)cccc3Cl)n2-c2ccc(Cl)c(Cl)c2)=NC1c1ccc([N+](=O)[O-])cc1 (stereo not drawn); test = fluorescence; pIC50 = 5.04
Compound = O=C(/C=C/c1ccccc1Br)c1cc2ccccc2oc1=O; pIC50 = 4.63
Compound = O=C1c2cc(Cl)ccc2NC12CCCC2; pIC50 = 4.63
Compound = CCS(=O)(=O)N1CCN(CC(=O)Nc2ccc(/C=C/C(=O)c3ccc(OC)c(OC)c3)cc2)CC1; test = fluorescence; pIC50 = < 4.00
Compound = NC(=S)N/N=C/c1ccccc1OCc1ccccc1; test = absorbance; pIC50 = 5.02
Compound = O=c1ccoc2ccc(OCCN3CCOCC3)cc12; test = fluorescence; pIC50 = 5.17
Compound = NC(=S)N/N=C/c1cccc(OCc2ccccc2)c1; test = absorbance; pIC50 = 5.64
Compound = Nn1c(-c2ccc(-n3nc(-c4ccccc4O)nc3-c3ccccc3O)cc2)n[nH]c1=S; test = fluorescence; pIC50 = 6.39
Compound = NC(=O)N/N=C/c1ccc(OCc2cccc(F)c2)cc1; test = absorbance; pIC50 = 6.96
Compound = COc1ccc(C2N=C(SCCCSc3nnc(Cc4ccccc4Nc4c(Cl)cccc4Cl)n3-c3ccc(Cl)c(Cl)c3)NC(C)=C2C(C)=O)cc1 (stereo not drawn); test = fluorescence; pIC50 = 5.08
Compound = O=C1c2cc(Br)ccc2NC12CCCC2; pIC50 = 4.78
Compound = O=C1CCCC2=C1C(c1c[nH]c3ccccc13)n1c(sc(=Cc3c[nH]c4ccccc34)c1=O)=N2 (stereo not drawn); test = fluorescence; pIC50 = 6.89
Compound = NC(=O)N/N=C/c1cccc(OCc2ccccc2)c1; test = absorbance; pIC50 = 5.81
Compound = O=C1c2cc(F)ccc2NC12CCCC2; pIC50 = 4.58
Compound = CNC(=S)N/N=C/c1cccc(OCc2ccccc2)c1; test = absorbance; pIC50 = 5.32
Compound = O=C(/C=C/c1cccc(Br)c1)c1cc2ccccc2oc1=O; pIC50 = 4.47
Compound = S=C(N/N=C/c1ccccc1OCc1ccccc1)Nc1ccccc1; test = absorbance; pIC50 = 4.81
Compound = O=C(/C=C/c1ccc(Cl)cc1)c1cc2ccccc2oc1=O; pIC50 = 4.58
Compound = CC(=O)C1=C(C)NC(SCCCSc2nnc(Cc3ccccc3Nc3c(Cl)cccc3Cl)n2-c2ccc(Cl)c(Cl)c2)=NC1c1ccc(C)cc1 (stereo not drawn); test = fluorescence; pIC50 = 4.82
Compound = CNC(=S)N/N=C/c1ccccc1OCc1ccccc1; test = absorbance; pIC50 = 5.24
Compound = O=C(/C=C/c1cccc(Cl)c1)c1cc2ccccc2oc1=O; pIC50 = 5.82

For quick reference, copied from above:
Compound = CNC(=S)N/N=C/c1cccc(OCc2ccccc2)c1; test = absorbance; pIC50 = 5.32
Compound = O=C(/C=C/c1cccc(Cl)c1)c1cc2ccccc2oc1=O; pIC50 = 5.82
Compound = NC(=O)N/N=C/c1cccc(OCc2ccccc2)c1; test = absorbance; pIC50 = 5.81
